Published values gathered from unrelated publications.
Compare with care: the assays were run in different laboratories. Values joined by “and” are separate records of one study, mostly repeats; a detail may differ. ± gives the spread as reported.

| Molecule | tested on | assay | test system | conditions | scale | quantity | result |
| --- | --- | --- | --- | --- | --- | --- | --- |
| MTVCNASQRQAHAQATAVSL | MiaPaCa | phage binding | peptide |  | relative to: targeting over control phage | selectivity ratio | 0.89 ± 0.29 |
| Peginesatide | UT7/EPO | microarray, item: EPAS1 mRNA (probe set 242868_at) |  | 20 nM, 90 min | relative to: vehicle | mRNA level | 4.2 fold |
| AAASMWR | MsrA and MsrB | LC-MS/MS | peptide, acetylated Escherichia coli proteome | 10 min, pH 7.5, 37 °C, together with: MsrA 0.54 µM, MsrB 2.02 µM |  | fractional oxidation | 0.403 |
| Pam2CSK4 | TLR2 | agonist, RT-qPCR, item: Marco | BV-2 | 1.0 µM | relative to: untreated cells | relative mRNA level | 2.23 and 2.98 and 3.75 |
| GEMVGQARILAQATSDLVNAIKDA | vinculin head domain Vd1 | complex rupture, AFM single-molecule force spectroscopy | peptide | double traces, C-terminal pulling, 800 nm/s |  | rupture force FWHM lower side | 13.6 pN |
| triosephosphate isomerase |  | co-immunoprecipitation | human RBC membrane | DMTMM crosslinker, unit not given, together with: Band 3 peptide 1-56 bait | relative to: negative control | co-IP enrichment | 0 |
| GSGAGICTIV | human MAGI1-2/6 PDZ construct (MBP fusion) | surface plasmon resonance | peptide | concentration not given | higher = stronger binding | normalised SPR binding response | 6.8 normalised RU |
| AAAEGEMK | MsrA and MsrB | LC-MS/MS | peptide, actinonin-treated Escherichia coli proteome | 20 min, pH 7.5, 37 °C, together with: MsrA 0.54 µM, MsrB 2.02 µM |  | fractional oxidation | 0.469 |
| epoetin alfa | UT7/EPO | microarray, item: KLF6 (probe 208961_s_at) |  | 5 U/mL, 90 min, together with: SCF 10 nM | relative to: vehicle | mRNA level | 7.5 fold |
| colistin | Escherichia coli | broth microdilution | clinical isolate RKI-No_462/16 |  |  | MIC | 8 µg/mL |
| Pam3CSK4 | TLR2 | agonist, RT-qPCR, item: Mrc1 | BV-2 | 1.0 µM | relative to: untreated cells | relative mRNA level | 0.209 and 0.247 and 0.252 |
| GSGAGIESNV | human MAGI1-3/6 PDZ construct (MBP fusion) | automated holdup | peptide, purified PDZ protein | concentration not given, unit not given | relative to: biotin control resin, higher = stronger binding | binding intensity | -0.0713 |
| maraviroc | GSK-3α |  | mice, NSG hu-PBL, HIV-infected, brain SSC region | ip, 120 mg/kg twice daily, 3 weeks post-infection, GSK-3α, total, normalized to | relative to: untreated HIV-infected mice | phospho-GSK-3α decrease | 2.7 fold |
| SEKHFRETEV | human MAGI1-2/6 PDZ construct (MBP fusion) | automated holdup | peptide, purified PDZ protein | concentration not given, unit not given | relative to: biotin control resin, higher = stronger binding | binding intensity | 0.396 |
| ILEAAKSIAAATSALVKAASAAQRE | vinculin head domain Vd1 | complex rupture, AFM single-molecule force spectroscopy | peptide | double traces, C-terminal pulling, 800 nm/s |  | rupture force FWHM lower side | 7.43 pN |
